Published values from different studies.
± gives the spread as reported.
Target: Prothrombin (F2, Homo sapiens, UniProt P00734)

For `CC(C)C[C@H](NC(=O)[C@H](CC(N)=O)NC(=O)[C@H](CC(N)=O)NC(=O)[C@@H]1CCCN1C(=O)[C@H](Cc1c[nH]c2ccccc12)NC(=O)[C@H](CC(N)=O)NC(=O)[C@@H](N)CC(C)C)C(=O)N[C@@H](CCC(=O)O)C(=O)NCC(=O)N[C@@H](CCCNC(=N)N)C(=O)N[C@@H](CC(=O)O)C(=O)N1CCC[C@H]1C(=O)N[C@@H](Cc1ccc(O)cc1)C(=O)N[C@@H](CC(N)=O)C(=O)N[C@@H](CCCNC(=N)N)C(=O)O`, the bound fraction was at least 25% (binding, dot blot; 1 h, room temperature, added: thrombin 250 nM).
`CC(C)CCC[C@@H](C)[C@H]1CC[C@H]2[C@@H]3CC=C4C[C@@H](OS(=O)(=O)O)CC[C@]4(C)[C@H]3CC[C@]12C` gave a maximal inhibition of 76.9 ± 3.3% (enzyme activity, inhibitor, chromogenic substrate; pH 7.4, 25 °C, 0.02% Tween 80, added: Spectrozyme TH).
For `Cc1ccc(C(=O)Nc2ccc(CN)cc2)c(O)c1`, the inhibition was under 20% (enzyme activity, inhibitor; 10 µM).
`Cc1ccc(C(=O)Nc2ccc(CP(=O)(O)O)cc2CP(=O)(O)O)cc1NC(=O)c1cccc(NC(=O)Nc2cccc(C(=O)Nc3cc(C(=O)Nc4ccc(CP(=O)(O)O)cc4CP(=O)(O)O)ccc3C)c2)c1` gave a selectivity ratio of over 67.6 fold (enzyme activity, inhibitor; reference: factor XIa over thrombin).
Under “Kd fold increase”, `C#CCC[C@H](NC=O)C(=O)N[C@H]1CSCc2cccc(c2)CSC[C@@H](C(=O)NCC(=O)N[C@@H](CO)C(=O)NCC(=O)N[C@@H](CO)C(=O)N[C@@H](CC(C)(C)C)C(=O)NCC(=O)N[C@@H](Cc2c[nH]cn2)C(=O)N[C@@H](Cc2c[nH]cn2)C(=O)N[C@@H](Cc2c[nH]cn2)C(=O)N[C@@H](Cc2c[nH]cn2)C(=O)N[C@@H](Cc2c[nH]cn2)C(=O)N[C@@H](Cc2c[nH]cn2)C(=O)N[C@@H](CCON=C(N)N)C(=O)N[C@@H](CC(C)(C)C)C(=O)O)NC(=O)CNC(=O)[C@H](C/C=C/CN)NC(=O)[C@H]([C@H](O)CC)NC(=O)[C@H](C)NC(=O)[C@H]([C@@H](C)CC)NC(=O)[C@H](Cc2ccc(O)c(F)c2)NC(=O)[C@H](CO)NC(=O)[C@H](CC(N)=O)NC(=O)[C@H](CCC(N)=O)NC(=O)[C@H](CC(C)(C)C)NC1=O` is recorded as 11 to 80 fold (binding, equilibrium ultrafiltration; reference: linear peptide over cyclic peptide).
The bound fraction of `CC(C)C[C@H](NC(=O)[C@@H](NC(=O)[C@H](CCCNC(=N)N)NC(=O)CNC(=O)[C@@H]1CCCN1C(=O)[C@H](CC(=O)O)NC(=O)[C@H](CC(=O)O)NC(=O)[C@H](Cc1ccc(O)cc1)NC(=O)[C@H](CC(=O)O)NC(=O)[C@H](CC(N)=O)NC(=O)[C@@H](NC(=O)[C@H](Cc1ccc(O)cc1)NC(=O)[C@@H](N)CCC(=O)O)[C@@H](C)O)[C@@H](C)O)C(=O)N[C@@H](CO)C(=O)NCC(=O)O` is reported as at least 25% (binding, dot blot; 1 h, room temperature, added: thrombin 250 nM).
`Cc1cc(-c2ccc(/N=N/c3ccc4c(S(=O)(=O)O)cc(S(=O)(=O)O)c(N)c4c3O)c(C)c2)ccc1/N=N/c1ccc2c(S(=O)(=O)O)cc(S(=O)(=O)O)c(N)c2c1O` has a Hill slope of 2.6 ± 1 (enzyme activity, inhibitor, thrombin chromogenic substrate hydrolysis; pH 7.4, 25–37 °C).
With `CC[C@H](C)[C@H](NC(=O)[C@@H]1CSSC[C@H](NC(=O)[C@H](Cc2ccc(O)cc2)NC(=O)CN)C(=O)N[C@@H](CO)C(=O)N[C@@H](CCCNC(=N)N)C(=O)N[C@@H](CO)C(=O)N[C@@H](Cc2ccc(O)cc2)C(=O)N2CCC[C@H]2C(=O)N2CCC[C@H]2C(=O)N[C@@H](C(C)C)C(=O)N1)C(=O)N1CCC[C@H]1C(=O)N[C@@H](CC(=O)O)C(=O)O` the selectivity ratio was 1280 (reference: Ki thrombin over Ki MASP-2).
`CC(C)C[C@H](NC(=O)[C@H](Cc1c[nH]cn1)NC(=O)[C@@H](NC(=O)[C@H](CCCNC(=N)N)NC(=O)CNC(=O)[C@@H]1CCCN1C(=O)[C@H](CC(=O)O)NC(=O)[C@H](CC(=O)O)NC(=O)[C@H](CO)NC(=O)[C@@H]1CCCN1C(=O)[C@H](CC(N)=O)NC(=O)[C@H](Cc1ccc(O)cc1)NC(=O)[C@H](Cc1c[nH]cn1)NC(=O)[C@H](CCCNC(=N)N)NC(=O)[C@@H](N)Cc1c[nH]c2ccccc12)C(C)C)C(=O)O` gave a bound fraction of at least 25% (binding, dot blot; 1 h, room temperature, added: thrombin 250 nM).
For `CC[C@H](C)[C@H](NC(=O)[C@@H]1CSSC[C@H](NC(=O)[C@H](Cc2ccc(O)cc2)NC(=O)CNC(C)=O)C(=O)N[C@@H](CO)C(=O)N[C@@H](CCCNC(=N)N)C(=O)N[C@@H](CO)C(=O)N[C@@H](Cc2ccc(O)cc2)C(=O)N2CCC[C@H]2C(=O)N2CCC[C@H]2C(=O)N[C@@H](C(C)C)C(=O)N1)C(=O)N1CCC[C@H]1C(=O)N[C@@H](CC(=O)O)C(N)=O`, the selectivity ratio was 7130 (reference: Ki thrombin over Ki MASP-2).
For `NCc1ccc(NC(=O)c2ccc3ccccc3c2O)cc1`, the inhibition was under 20% (enzyme activity, inhibitor; 10 µM).

For quick reference, copied from above:
For `CC(C)C[C@H](NC(=O)[C@H](CC(N)=O)NC(=O)[C@H](CC(N)=O)NC(=O)[C@@H]1CCCN1C(=O)[C@H](Cc1c[nH]c2ccccc12)NC(=O)[C@H](CC(N)=O)NC(=O)[C@@H](N)CC(C)C)C(=O)N[C@@H](CCC(=O)O)C(=O)NCC(=O)N[C@@H](CCCNC(=N)N)C(=O)N[C@@H](CC(=O)O)C(=O)N1CCC[C@H]1C(=O)N[C@@H](Cc1ccc(O)cc1)C(=O)N[C@@H](CC(N)=O)C(=O)N[C@@H](CCCNC(=N)N)C(=O)O`, the bound fraction was at least 25% (binding, dot blot; 1 h, room temperature, added: thrombin 250 nM).
